Results pooled from the literature.
Compare with care: the assays were run in different laboratories. Values joined by “and” are separate records of one study, mostly repeats; a detail may differ. ± gives the spread as reported.
Sequence of UniProt P09936 (whole entry, looked up): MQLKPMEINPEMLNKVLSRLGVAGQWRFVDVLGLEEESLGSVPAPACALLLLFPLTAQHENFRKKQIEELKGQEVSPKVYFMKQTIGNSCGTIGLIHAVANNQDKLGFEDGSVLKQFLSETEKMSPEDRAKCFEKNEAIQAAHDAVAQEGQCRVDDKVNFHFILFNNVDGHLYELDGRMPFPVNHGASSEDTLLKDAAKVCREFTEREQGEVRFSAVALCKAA

SMILES	target or system	test	system	setting	how to read	quantity	value
Cc1ccc([C@@H]2O[C@H](CO)[C@@H](O)[C@H](O)[C@H]2O)cc1Cc1ccc(-c2ccc(F)cc2)s1	–	–	Japanese type 2 diabetes patients	400 mg, day 1, 24 h urine collection	relative to: baseline	urinary calcium excretion change	-37.9 mg
Cc1cc(C)c(CNC(=O)c2cc(Cl)c3c(c2C)O[C@@](C)([C@H]2CC[C@H](N(C)C)CC2)O3)c(=O)[nH]1	–	CTCAE v4.0, measured: platelet count decreased	human relapsed/refractory NHL	oral, 200 mg once daily, onset after cycle 1 day 1, overall treatment period	–	patients with TEAE	41.7%
CNC(=O)c1ccc(-c2cnc3ncc(Cc4ccc5ncccc5c4)n3n2)cc1F	–	measured: Dyspepsia, all grades	gastric cancer patients	oral, 600 mg twice daily, expansion cohort, any causality	–	patients with adverse event	11%
COc1cc2c3c(n(CCCN4CCOCC4)c(=O)c2cc1OC)-c1cc2c(cc1C3=O)OCO2	–	–	beagle dog, female, plasma	intravenous infusion, 646 mg/m^2, 1 h infusion	–	Cmax	2010 ng/mL
CN1C(C(=O)Nc2cccc(F)n2)=C(O)c2ccccc2S1(=O)=O	–	–	–	–	–	pKa (basic)	< 2
Cc1c(Cl)c(C)[n+]([O-])c(Cl)c1-c1noc(-c2cc(O)c(O)c([N+](=O)[O-])c2)n1	–	measured: Bloating	healthy Caucasian subjects	oral, 25 mg, 4 days	–	adverse drug reaction incidence	0%
CCC(CC)C(=O)Oc1cccc(C(O)CCN)c1.O=CO (stereo not drawn)	–	scotopic ERG	BALB/cJ mice	intraperitoneal, 10 mg/kg, 1 h dark adaptation, together with: 10,000 lx photobleach, 10 min	–	ERG a-wave amplitude	9 µV and 30 µV and 8 µV and 14 µV and 21 µV
O=C(CCCN1CCC(O)(c2ccc(Cl)cc2)CC1)c1ccc(F)cc1	–	–	male Hartley guinea pigs, anaesthetized	intravenous, 1 mg/kg over 10 min, after infusion	–	mean blood pressure	21 ± 0.2 mmHg
Cc1cc(Nc2ccc(S(F)(F)(F)(F)F)cc2)n2nc(C(C)(F)F)nc2n1	–	–	Plasmodium vivax malaria patients	oral, 400 mg	–	adverse event sinus bradycardia	0%
Cc1nc(Nc2ncc(C(=O)Nc3c(C)cccc3Cl)s2)cc(N2CCN(CCO)CC2)n1	–	–	human	oral, 100 mg	–	related TEAEs	100%
O=C(Nc1nc2cccc(-c3ccc(CN4CCS(=O)(=O)CC4)cc3)n2n1)C1CC1	–	–	rheumatoid arthritis patients	oral, 100 mg twice daily, 4 weeks, TEAE regardless of relatedness	–	patients with Cardiac disorders	0%
COc1ncc(-c2nc3c(n2C(C)C)[C@H](c2ccc(Cl)cc2)N(c2cc(Cl)cn(C)c2=O)C3=O)c(OC)n1	–	–	human patients, plasma	oral, 20 mg, low-dose arm, cycle 1 day 8	–	median Tmax	4 h
COC(=O)c1ccc(-c2c(C)[nH]c3cc(OC)c(Cl)cc3c2=O)cc1	–	–	PAMPA	pH 7.4	–	Papp	198 ×10⁻⁶ cm/s
O=C(O)CCC(=O)O.[2H]C([2H])([2H])Oc1cc(C)c2[nH]ccc2c1CN1CC[C@@H](C2CC2)C[C@H]1c1ccc(C(=O)O)cc1	–	multiple ascending dose	healthy Chinese subjects	100 mg twice daily	–	subjects with elevated AST TEAE	12.5%
CC(C)NCCCC[C@@H]1NC(=O)[C@H](Cc2ccc(O)cc2)NC(=O)[C@H](Cc2ccccc2)NC(=O)CC[C@H](C(=O)N[C@@H](CCCCNC(C)C)C(=O)N[C@@H](CCCCNC(=O)[C@H](CCC(=O)O)NC(=O)[C@H](CCC(=O)O)NC(=O)[C@H](CCC(=O)O)NC(=O)CN2CCN(CC(=O)O)CCN(CC(=O)O)CCN(CC(=O)O)CC2)C(N)=O)NC(=O)CNC(=O)[C@H](Cc2ccc3ccccc3c2)NC(=O)[C@@H](CCCNC(=N)N)NC1=O [gallium-68 labelled]	–	–	mouse with PC-3 xenograft, lung	intravenous, 1 h	–	tissue uptake	0.71 %ID/g
CCN1/C(=C/C(C)=O)Sc2ccc(F)cc21	–	–	cynomolgus monkey	oral, 10 mg/kg, 6 h post-dose	–	QTc interval (Bazett)	330 ± 11 ms
CC(F)(F)c1cc(F)ccc1-c1sc2cc(O)ccc2c1Oc1ccc(/C=C/C(=O)O)cc1	–	–	human, serum	oral, 600 mg once daily, cycle 1 day 28, fasted, median	–	Tlast	23.9 h
COc1ccc(C[C@@H](C)[C@@H](C)Cc2ccc(OC)c(OC)c2)cc1OC	–	–	beagle dog female, plasma	oral, 100 mg/kg/day, day 28	–	Cmax	1620 ± 245 ng/mL
Cc1cc(NC2CCN(C(=O)OC3CCN(C(=O)/C=C/CN(C)C)C3)CC2)n2ncc(C(C)C)c2n1 (stereo not drawn)	–	CTCAE v4.0, measured: Hypotension	patients with advanced solid tumours	oral, dose not given, TIW, grade 3 or higher	–	patients with TEAE	0%
CCOc1c([C@H](C)n2nc(C)c3c(N)ncnc32)cc(Cl)c(F)c1[C@@H]1CNC(=O)C1	–	measured: QTcF ≤450 ms	previously treated B-cell malignancy	oral, 30 mg once daily, baseline QTcF ≤450 ms	–	ECG observations	98.3%
N[C@@H](C[18F])C(=O)O	–	PET	athymic nude mouse	intravenous, 15 min	–	maximum muscle uptake	1.68 ± 0.27 %ID/cc
COc1ccc2[nH]c([S+]([O-])Cc3ncc(C)c(OC)c3C)nc2c1 (stereo not drawn)	–	–	healthy Chinese volunteers CYP2C19 RM, plasma	oral, 20 mg single dose, enteric-coated tablets	–	AUC(0-t)	598 ± 295 ng·h/mL
O=C1Cc2cc(CCN3CCN(c4nsc5ccccc45)CC3)c(Cl)cc2N1	–	–	male Hartley guinea pigs, anaesthetized	intravenous, 0.1 mg/kg over 10 min, after infusion	–	mean blood pressure	31 ± 0.6 mmHg
CCc1cc(C(=O)NC)c2nccc(N3CCc4c(cc(Cn5ccnc5)cc4-c4cn(C)nc4C(F)(F)F)C3=O)c2c1	–	–	Sprague Dawley rats	oral, 100 mg/kg twice daily, 7 days	–	serum CREA level	46.6 ± 1.7 µmol/L

SMILES	target or system	test	system	setting	how to read	quantity	value
CC1(C)C(/C=C/C=C/C=C2/N(CCCCCC(=O)NCCC(=O)N3Cc4ccccc4C#Cc4ccccc43)c3ccc(S(=O)(=O)O)cc3C2(C)C)=[N+](CCCS(=O)(=O)[O-])c2ccc(S(=O)(=O)O)cc21	–	–	C57BL/6 mouse, azido-sugar treated, RBC membrane	intravenous, single dose	–	retention time	> 5 weeks
N#Cc1ccc2c(c1)[C@H]1CCCN(C(=O)c3ccc4[nH]cnc4c3)[C@H]1C2	–	–	human males	10 mg, day 7	–	total testosterone level	12.5 nmol/L
CC(C(=O)NCC(=O)NCC(CNC(=O)CNC(=O)C(C)N1CCN(CC(=O)[O-])CCN(CC(=O)[O-])CCN(CC(=O)[O-])CC1)(CNC(=O)CNC(=O)C(C)N1CCN(CC(=O)[O-])CCN(CC(=O)[O-])CCN(CC(=O)[O-])CC1)CNC(=O)CNC(=O)C(C)N1CCN(CC(=O)[O-])CCN(CC(=O)[O-])CCN(CC(=O)[O-])CC1)N1CCN(CC(=O)[O-])CCN(CC(=O)[O-])CCN(CC(=O)[O-])CC1.[Gd+3].[Gd+3].[Gd+3].[Gd+3] (stereo not drawn)	–	–	cynomolgus monkey, liver	dose not given, day 58, PK group	–	lanthanide tissue concentration	0.43 ± 0.13 nmol/g
CC(C)NCC(O)c1ccc(NS(C)(=O)=O)cc1 (racemic)	–	–	male Hartley guinea pigs, anaesthetized	intravenous, 1 mg/kg over 10 min, after infusion	–	mean blood pressure	39 ± 0.3 mmHg
CC[C@H](C)[C@H](NC(=O)CN)C(=O)N[C@@H](CC(C)C)C(=O)N[C@@H](C)C(=O)N[C@@H](C)C(=O)N[C@H](C(=O)N[C@@H](CCCCN)C(=O)N[C@@H](C)C(=O)N[C@H](C(=O)N[C@@H](C)C(=O)N[C@@H](CCCCN)C(=O)N[C@@H](C)C(=O)N[C@@H](C)C(=O)NCC(N)=O)[C@@H](C)CC)[C@@H](C)CC	–	circular dichroism at 222 nm	10 mM SDS	100 µM, pH 4.0	–	mean residue ellipticity	-10600 deg cm2/dmol
CCC(=O)NCC[C@@H]1CCc2cc(O)c3c(c21)CCO3	–	sulfation, substrate	pooled human liver cytosol	50 µM, 30 min, together with: 50 mM NaF	–	specific activity	13.4 ± 0.81 pmol/min/mg
O=C(N[C@H](Cc1c[nH]c2ccccc12)C(=O)Nc1ccncc1)c1ccc(-c2cc(C(F)(F)F)ccc2F)cc1F	–	–	Swiss Webster mouse, female, heart	oral, 50 mg/kg, 8 h, 20% HPβCD vehicle	–	concentration	940 nM
C[C@@H]1O[C@@H](O[C@H]2[C@H](Oc3cc(O)c4c(c3)O[C@H](c3ccc(O)cc3)CC4=O)O[C@H](CO)[C@@H](O)[C@@H]2O)[C@H](O)[C@H](O)[C@H]1O	–	–	PBS receiver	50 mg/mL, 360 min, pH 6.8	–	Papp	1.03 ± 1.3 ×10⁻⁶ cm/s
Cc1cc([C@H]2C[C@H]3[C@@H](CF)SC(N)=N[C@@]3(c3ccc(F)cc3F)CO2)on1	–	–	male 129/SVE mouse, brain	subcutaneous, 30 mg/kg, 1 h	–	brain concentration	7340 nM
Cc1noc(C)c1Cn1cc(N2C(=O)CN(Cc3cccc(O)c3)C2=O)cn1	–	–	pooled human liver microsomes	50 µM, 10 min, pH 7.4	–	remaining parent	104 % peak area
Cc1cc(C)cc(C(=O)c2c(C(C)C)c(=O)[nH]c(=O)n2Cc2ccnc(N)c2)c1	–	–	Sprague-Dawley rat, male, plasma	intravenous, 20 mg/kg	–	C0	200 ng/mL
C=CCN1CC(=O)N2[C@@H](Cc3ccc(O)cc3F)C(=O)N(Cc3cccc(N4CC(N5CCN(CC)CC5)C4)n3)C[C@@H]2N1C(=O)NCc1ccccc1	–	–	advanced solid tumour patients	oral, 30 mg twice daily, any grade, dose-escalation	–	treatment-related AST increased	0%
CCCOc1ccc([C@H]2CNC(=O)N2c2ccc3[nH]cnc3c2)cc1	–	–	human volunteers fed, plasma	oral tablet, 200 mg single dose, crossover, geometric mean	–	effective half-life	2.2 h
CCN(Cc1ccc(F)cc1)c1ccc(CO)c(Cl)c1	–	–	F344 rat, male, liver	oral, 100 mg/kg/day, 2 days	–	bile ducts per triad	8.5 and 8.3 and 6.5
CC(C)(C(=O)N1CCOc2c(C#N)cncc2C1)C(F)F	–	–	human, both sexes	oral, 20 mg single dose	–	subjects with keratitis TEAE	0%
Cc1nn(C)cc1S(=O)(=O)NC(=O)c1ccc(-n2ccc(OCC(C)(C)C(F)(F)F)n2)nc1N1C[C@@H](C)CC1(C)C	–	–	–	–	–	pKa (basic)	< 2
Cc1nc(-c2cnc(NC(C)C)n(C)c2=O)ccc1Oc1ccnc(-c2cnn(C)c2)c1	–	–	Beagle dog, male, plasma	oral, 10 mg/kg, crossover study, mean	–	Tmax	0.83 h
COc1cc(N2CCC3(CCN(C)CC3)CC2)ccc1Nc1ncc(Cl)c(Nc2ccccc2P(C)(C)=O)n1	–	population PK model	human	oral, final model without outliers	–	Q/F	15.8 L/h
COc1cc(C=C(C#N)C(N)=O)cc(OC)c1OC	Ubiquitin carboxyl-terminal hydrolase isozyme L1 (UCHL1, Homo sapiens, UniProt P09936)	covalent, intact protein LC-MS	–	12.5 µM	–	labelling	8.28%
O=C(COc1ccc(Cl)cc1)NC12CC(c3nnc([C@H]4C[C@@H](OC(F)(F)F)C4)o3)(C1)C2	–	measured: Epistaxis	healthy humans, both sexes	oral, 400 mg, single ascending dose	relative to: subjects	treatment-emergent adverse events	16.7%
Cc1nccc2c1c(=O)n(C)c1cc(OC[C@@H](N)CC(C)C)c(C#N)cc21	–	–	rat, lumbar spinal cord	intrathecal, 0.3 µg, 30 min	–	concentration	90.8 nM
C[C@H]1CN(C(=O)CC#N)[C@]12CCN(c1ncnc3[nH]ccc13)C2	–	–	healthy human	oral, dose not given	–	subjects with Dizziness	3.1%
Nc1ncnc2c1ncn2[C@H]1C[C@@H]2OP(=O)(O)OC[C@H]3O[C@@H](n4cnc5c(N)ncnc54)C[C@@H]3OP(=O)(O)OC[C@H]2O1	–	–	non-tumor-bearing mice, serum	intravenous, 1 mg/kg, toxicity study	–	amylase	805 ± 43.1 U/L
CC(C)C[C@H](NC(=O)C[C@H](O)[C@H](CC(C)C)NC(=O)[C@H](Cc1c[nH]cn1)NC(=O)CNC(=O)[C@@H](NC(=O)[C@H](C)NC(=O)[C@H](Cc1c[nH]c2ccccc12)NC(=O)[C@H](CCC(N)=O)NC(=O)[C@@H](Cc1ccccc1)NC(=O)COCCOCCNC(=O)CCC(C(=O)O)N1CCN(CC(=O)O)CCN(CC(=O)O)CC1)C(C)C)C(N)=O (stereo partly drawn) [lutetium-177 labelled]	–	–	female BALB/c nu/nu mice, bone	intravenous, 50 pmol, 24 h	–	tissue uptake	0.07 ± 0.01 %ID/g

A few entries again:
SMILES	target or system	test	system	setting	how to read	quantity	value
CCC(=O)NCC[C@@H]1CCc2cc(O)c3c(c21)CCO3	–	sulfation, substrate	pooled human liver cytosol	50 µM, 30 min, together with: 50 mM NaF	–	specific activity	13.4 ± 0.81 pmol/min/mg
COc1cc(C=C(C#N)C(N)=O)cc(OC)c1OC	Ubiquitin carboxyl-terminal hydrolase isozyme L1 (UCHL1, Homo sapiens, UniProt P09936)	covalent, intact protein LC-MS	–	12.5 µM	–	labelling	8.28%
O=C1Cc2cc(CCN3CCN(c4nsc5ccccc45)CC3)c(Cl)cc2N1	–	–	male Hartley guinea pigs, anaesthetized	intravenous, 0.1 mg/kg over 10 min, after infusion	–	mean blood pressure	31 ± 0.6 mmHg
N[C@@H](C[18F])C(=O)O	–	PET	athymic nude mouse	intravenous, 15 min	–	maximum muscle uptake	1.68 ± 0.27 %ID/cc
Cc1nc(-c2cnc(NC(C)C)n(C)c2=O)ccc1Oc1ccnc(-c2cnn(C)c2)c1	–	–	Beagle dog, male, plasma	oral, 10 mg/kg, crossover study, mean	–	Tmax	0.83 h
CC(C)C[C@H](NC(=O)C[C@H](O)[C@H](CC(C)C)NC(=O)[C@H](Cc1c[nH]cn1)NC(=O)CNC(=O)[C@@H](NC(=O)[C@H](C)NC(=O)[C@H](Cc1c[nH]c2ccccc12)NC(=O)[C@H](CCC(N)=O)NC(=O)[C@@H](Cc1ccccc1)NC(=O)COCCOCCNC(=O)CCC(C(=O)O)N1CCN(CC(=O)O)CCN(CC(=O)O)CC1)C(C)C)C(N)=O (stereo partly drawn) [lutetium-177 labelled]	–	–	female BALB/c nu/nu mice, bone	intravenous, 50 pmol, 24 h	–	tissue uptake	0.07 ± 0.01 %ID/g
CC(C)(C(=O)N1CCOc2c(C#N)cncc2C1)C(F)F	–	–	human, both sexes	oral, 20 mg single dose	–	subjects with keratitis TEAE	0%
